Measurements pooled from the literature.
Compare with care: the assays were run in different laboratories. Numbers after ± are the reported error.
Method: steady-state kinetics
B1: protein Y93W (Thermus thermophilus, UniProt Q5SKR5); chain MSAPKPFVIGIAGGTASGKTTLAQALARTLGERVALLPMDHYYKDLGHLPLEERLRVNYDHPDAFDLALYLEHAQALLRGLPVEMPVYDFRAWTRSPRRTPVRPAPVVILEGILVLYPKELRDLMDLKVFVDADADERFIRRLKRDVLERGRSLEGVVAQYLEQVKPMHLHFVEPTKRYADVIVPRGGQNPVALEMLAAKALARLARMGAA
B2: vioC (Streptomyces vinaceus, UniProt Q6WZB0); chain MTESPTTHHGAAPPDSVATPVRPWSEFRLTPAEAAAAAALAARCAQRYDETDGPEFLLDAPVIAHELPRRLRTFMARARLDAWPHALVVRGNPVDDAALGSTPVHWRTARTPGSRPLSFLLMLYAGLLGDVFGWATQQDGRVVTDVLPIKGGEHTLVSSSSRQELGWHTEDAFSPYRADYVGLLSLRNPDGVATTLAGVPLDDLDERTLDVLFQERFLIRPDDSHLQVNNSTAQQGRVEFEGIAQAADRPEPVAILTGHRAAPHLRVDGDFSAPAEGDEEAAAALGTLRKLIDASLYELVLDQGDVAFIDNRRAVHGRRAFQPRYDGRDRWLKRINITRDLHRSRKAWAGDSRVLGQR
B3: ltaE H83N (Escherichia coli, UniProt P75823); chain MIDLRSDTVTRPSRAMLEAMMAAPVGDDVYGDDPTVNALQDYAAELSGKEAAIFLPTGTQANLVALLSHCERGEEYIVGQAANNYLFEAGGAAVLGSIQPQPIDAAADGTLPLDKVAMKIKPDDIHFARTKLLSLENTHNGKVLPREYLKEAWEFTRERNLALHVDGARIFNAVVAYGCELKEITQYCDSFTICLSKGLGTPVGSLLVGNRDYIKRAIRWRKMTGGGMRQSGILAAAGIYALKNNVARLQEDHDNAAWMAEQLREAGADVMRQDTNMLFVRVGEENAAALGEYMKARNVLINASPIVRLVTHLDVSREQLAEVAAHWRAFLAR
B4: cyc1 F198L (Streptomyces coelicolor, UniProt Q9K499); chain MHAFPHGTTATPTAIAVPPSLRLPVIEAAFPRQLHPYWPKLQETTRTWLLEKRLMPADKVEEYADGLCYTDLMAGYYLGAPDEVLQAIADYSAWFFVWDDRHDRDIVHGRAGAWRRLRGLLHTALDSPGDHLHHEDTLVAGFADSVRRLYAFLPATWNARFARHFHTVIEAYDREFHNRTRGIVPGVEEYLELRRLTLAHWIWTDLLEPSSGCELPDAVRKHPAYRRAALLSQEFAAWYNDLCSLPKEIAGDEVHNLGISLITHHSLTLEEAIGEVRRRVEECITEFLAVERDALRFADELADGTVRGKELSGAVRANVGNMRNWFSSVYWFHHESGRYMVDSWDDRSTPPYVNNEAAGEK
B5: enzyme R108A (Sinorhizobium meliloti, UniProt Q92UV7); chain MTNAEVTIAVRHEPMRIAGRLVDTDDRVEVRYPWNDTVVGTVPAGRAEHAREAFAIAAAYQPKLTRYERQKILLATAEALAARKEEISDVITLELGISKADSLYEVGAAFDVFTLAGQMCIRDDGEIFSCDLTPHGKARKIFTMREPLTAISAITPFNHPLNMVAHKVAPAIATNNCVVVKPTELTPMTALLLADILYEAGLPPEMLSVVTGWPADIGMEMITNPHVDLVTFTGSVPVGKLIAANAHYKRQVLELGGNDPLIILNDLSDDDLARAADLAVAGATKNSGQRCTAVKRILCQESVADRFVPLVLERAKRLRFGDPMDRSTDLGTVIHEKAAALFEERVMRAAEEGADILYHPGRSGALLPPIVVDRVPHQSDLVLEETFGPIIPIVRVPDDDDATITLSNSTAFGLSSGVCTNDYRRMQKYIAGLKVGTVNIWEVPGYRIEMSPFGGIKDSGNGYKEGVIEAMKSFTNVKTFSLPWP
B6: iodotyrosine deiodinase (Haliscomenobacter hydrossis, UniProt F4KU78); chain MKQKPAFIPYAGAQFEPEEMLSKSAEYYQFMDHRRTVREFSNRAIPLEVIENIVMTASTAPSGAHKQPWTFVVVSDPQIKAKIRQAAEKEEFESYNGRMSNEWLEDLQPFGTDWHKPFLEIAPYLIVVFRKAYDVLPDGTQRKNYYVQESVGIACGFLLAAIHQAGLVALTHTPSPMNFLQKILQRPENERPFLLVPVGYPAEGAMVPDLQRKDKAAVMVVY
B7: enzyme (Chlamydomonas reinhardtii, UniProt A0A2K3D6R4); chain MSETAGKPIECKAAIAWEAKKPLEVRTVTVAPPGPGEVRVQIKATALCQTDAYTLGGLDPEGRFPCILGHEAAGVVESVGEGVTSVKPGDHVIPCYQAYCGECKFCKHPESNLCVSVRAFTGKGVMKSDGKPRFTVDGKPIYHFMGTSTFSEYTVVHEQSVAKIDVNAPLDKVCLLGCGVSTGWGAVFNTAKVTAGSTVAVFGLGAVGLAVIEAAKRAGASRIIAVDIDPTKFPTAKEFGATDCINPKDHEKPIQQVIVEMTEWGCDYTFECIGNTAVMRAALECAHRGWGTSVIVGVAAAGQEISTRPFQLVTGRRWMGTAFGGYKSRVQVPDLVTDYMSGATLLDKYITHNMKFDQINEAFELLHAGECLRCVLTF
B8: asnB E349A (Escherichia coli, UniProt P22106); chain CSIFGVFDIKTDAVELRKKALELSRLMRHRGPDWSGIYASDNAILAHERLSIVDVNAGAQPLYNQQKTHVLAVNGEIYNHQALRAEYGDRYQFQTGSDCEVILALYQEKGPEFLDDLQGMFAFALYDSEKDAYLIGRDHLGIIPLYMGYDEHGQLYVASEMKALVPVCRTIKEFPAGSYLWSQDGEIRSYYHRDWFDYDAVKDNVTDKNELRQALEDSVKSHLMSDVPYGVLLSGGLDSSIISAITKKYAARRVEDQERSEAWWPQLHSFAVGLPGSPDLKAAQEVANHLGTVHHEIHFTVQEGLDAIRDVIYHIETYDVTTIRASTPMYLMSRKIKAMGIKMVLSGAGSDEVFGGYLYFHKAPNAKELHEETVRKLLALHMYDCARANKAMSAWGVEARVPFLDKKFLDVAMRINPQDKMCGNGKMEKHILRECFEAYLPASVAWRQKEQFSDGVGYSWIDTLKEVAAQQVSDQQLETARFRFPYNTPTSKEAYLYREIFEELFPLPSAAECVPGGPSVACSSAKAIEWDEAFKKMDDPSGRAVGVHQSAYK
B9: BaiA1 (Clostridium scindens, UniProt P07914); chain MKLVQDKITIITGGTRGIGFAAAKLFIENGAKVSIFGETQEEVDTALAQLKELYPEEEVLGFAPDLTSRDAVMAAVGTVAQKYGRLDVMINNAGITMNSVFSRVSEEDFKNIMDINVNGVFNGAWSAYQCMKDAKQGVIINTASVTGIYGSLSGIGYPTSKAGVIGLTHGLGREIIRKNIRVVGVAPGVVDTDMTKGLPPEILEDYLKTLPMKRMLKPEEIANVYLFLASDLASGITATTISVDGAYRP
Chain of UniProt Q9UBT6 (whole entry, looked up): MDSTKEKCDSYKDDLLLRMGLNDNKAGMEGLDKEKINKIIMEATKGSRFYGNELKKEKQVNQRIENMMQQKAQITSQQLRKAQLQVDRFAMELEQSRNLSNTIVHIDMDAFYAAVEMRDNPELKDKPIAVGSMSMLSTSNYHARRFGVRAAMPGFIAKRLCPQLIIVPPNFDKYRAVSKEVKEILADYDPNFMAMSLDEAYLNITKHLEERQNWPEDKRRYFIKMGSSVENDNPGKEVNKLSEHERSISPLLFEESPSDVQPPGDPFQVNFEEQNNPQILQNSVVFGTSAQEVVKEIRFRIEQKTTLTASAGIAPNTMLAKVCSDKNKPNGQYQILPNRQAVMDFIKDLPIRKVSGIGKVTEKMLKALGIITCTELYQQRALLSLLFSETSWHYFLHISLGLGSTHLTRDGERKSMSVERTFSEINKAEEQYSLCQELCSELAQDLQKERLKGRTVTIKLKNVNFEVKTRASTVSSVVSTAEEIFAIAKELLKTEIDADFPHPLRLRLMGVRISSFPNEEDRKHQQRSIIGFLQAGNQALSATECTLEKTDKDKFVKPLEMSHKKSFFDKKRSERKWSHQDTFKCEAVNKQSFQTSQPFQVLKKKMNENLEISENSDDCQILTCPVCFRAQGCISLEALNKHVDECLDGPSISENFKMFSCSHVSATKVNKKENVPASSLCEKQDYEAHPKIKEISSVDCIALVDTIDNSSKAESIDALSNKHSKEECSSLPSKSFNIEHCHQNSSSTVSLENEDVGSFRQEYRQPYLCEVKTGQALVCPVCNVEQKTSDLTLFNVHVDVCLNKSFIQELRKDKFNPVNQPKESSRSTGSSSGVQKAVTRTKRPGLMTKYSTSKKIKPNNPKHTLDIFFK
Chain of UniProt P52429 (whole entry, looked up): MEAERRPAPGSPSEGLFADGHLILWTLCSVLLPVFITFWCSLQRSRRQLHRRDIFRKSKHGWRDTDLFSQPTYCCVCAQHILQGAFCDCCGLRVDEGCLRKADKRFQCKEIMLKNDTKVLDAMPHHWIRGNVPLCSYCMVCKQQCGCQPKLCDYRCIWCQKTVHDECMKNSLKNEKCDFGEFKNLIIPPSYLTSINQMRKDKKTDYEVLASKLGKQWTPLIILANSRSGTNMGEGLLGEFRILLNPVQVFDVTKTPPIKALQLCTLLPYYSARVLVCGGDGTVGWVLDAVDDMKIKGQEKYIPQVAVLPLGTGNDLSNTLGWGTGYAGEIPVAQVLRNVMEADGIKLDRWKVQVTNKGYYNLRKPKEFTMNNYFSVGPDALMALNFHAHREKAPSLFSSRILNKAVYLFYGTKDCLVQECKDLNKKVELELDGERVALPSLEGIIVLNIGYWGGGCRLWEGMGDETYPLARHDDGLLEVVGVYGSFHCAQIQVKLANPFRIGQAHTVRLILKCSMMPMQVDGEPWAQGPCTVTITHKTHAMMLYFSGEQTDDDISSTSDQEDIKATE
Chain of UniProt A8M783 (whole entry, looked up): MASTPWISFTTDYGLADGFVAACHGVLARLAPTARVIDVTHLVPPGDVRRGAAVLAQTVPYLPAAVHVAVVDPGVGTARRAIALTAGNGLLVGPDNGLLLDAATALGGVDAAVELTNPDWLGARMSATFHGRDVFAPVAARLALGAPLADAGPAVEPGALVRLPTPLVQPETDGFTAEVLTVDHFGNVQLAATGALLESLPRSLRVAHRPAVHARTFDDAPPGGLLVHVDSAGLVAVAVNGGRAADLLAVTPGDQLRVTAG

Ptb (Listeria monocytogenes, UniProt Q8Y7B7)  kcat (CCC(CC)C(=O)SCCNC(=O)CCNC(=O)[C@H](O)C(C)(C)COP(=O)(O)OP(=O)(O)OC[C@H]1O[C@@H](n2cnc3c(N)ncnc32)[C@H](O)[C@@H]1OP(=O)(O)O; pH 7.5, 25 °C, apparent): 101 ± 11 s⁻¹
DGKE (Homo sapiens, UniProt P52429)  kcat (CCCCC/C=C\C/C=C\CCCCCCCC(=O)O[C@@H](CO)COC(=O)CCCCCCCCCCCCCCCCC; pH 7.5, 25 °C, mixed micelles, surface mole percent, not purified, with: 0.1 mM ATP; 5 mM MgCl2): 4.6 ± 0.6 s⁻¹
B1 (protein Y93W)  kcat (Nc1ccn([C@@H]2O[C@H](CO)[C@@H](O)[C@H]2O)c(=O)n1; pH 7.2, 25 °C, KCl 100 mM, with: ATP 100–200 µM): 0.4 ± 0.1 s⁻¹
protein (Salinispora arenicola, UniProt A8M783)  kcat (I; pH 7.9, 37 °C, apparent, with: SAM): 0.000139 s⁻¹
B2 (vioC)  kcat (N=C(N)NCCCC[C@H](N)C(=O)O; pH 8, 30 °C, with: alpha-ketoglutarate 1.0 mM): 13.8 ± 2.77 s⁻¹
B3 (ltaE H83N)  kcat (C[C@H](O)[C@H](N)C(=O)O; pH 7, 30 °C, potassium phosphate 20 mM, retro-aldol cleavage, with: PLP 500 µM): 1.28 s⁻¹
POLK (Homo sapiens, UniProt Q9UBT6)  kcat (Nc1ncnc2c1ncn2[C@H]1C[C@H](O)[C@@H](COP(=O)(O)OP(=O)(O)OP(=O)(O)O)O1; pH 7.5, 23 °C, MgCl2 5 mM, with: 8-oxoG template): 0.012 ± 0.002 s⁻¹
pgmB H20N (Lactococcus lactis) (sequence not shown)  kcat (O=P(O)(O)OC[C@H]1O[C@@H](OP(=O)(O)O)[C@H](O)[C@@H](O)[C@@H]1O; pH 7, 25 °C): 0.0303 ± 0.0005 s⁻¹
B4 (cyc1 F198L)  kcat (CC(C)=CCC/C(C)=C/CC/C(C)=C/CO[P@@](=O)(O)OP(=O)(O)O; pH 6.5, 30 °C, with: MgCl2 10 mM): 0.00475 ± 5e-05 s⁻¹
B5 (enzyme R108A)  kcat (NC(=O)c1ccc[n+]([C@@H]2O[C@H](COP(=O)(O)OP(=O)(O)OC[C@H]3O[C@@H](n4cnc5c(N)ncnc54)[C@H](O)[C@@H]3O)[C@@H](O)[C@H]2O)c1; pH 7.5, 30 °C, cofactor varied): 0.051 ± 0.001 s⁻¹
LovD A190T/A86V/C40A/C60N/D12G/G275S/H161Y/K26E/L361M/V334D (Aspergillus terreus)  kcat (CCC(C)(C)C(=O)SCCC(=O)OC; 25 °C, 10% DMSO, with: 2 mM MJA): 0.055 ± 0.001 s⁻¹
B6 (iodotyrosine deiodinase)  kcat (COc1cc(C[C@H](N)C(=O)O)cc(I)c1O; pH 7.4, 25 °C): 1.4 ± 0.15 s⁻¹
B7 (enzyme)  kcat (NC(=O)C1=CN([C@@H]2O[C@H](COP(=O)(O)OP(=O)(O)OC[C@H]3O[C@@H](n4cnc5c(N)ncnc54)[C@H](O)[C@@H]3O)[C@@H](O)[C@H]2O)C=CC1; pH 7.9, apparent, cofactor varied): 27 ± 0.6 s⁻¹
enzyme (Schistosoma mansoni, UniProt Q962Y6)  kcat (NC(=O)CCCCC1CCSS1; pH 7.4, 25 °C): 4.3 ± 0.4 s⁻¹
B8 (asnB E349A)  kcat (NC(=O)CC[C@H](N)C(=O)O; pH 8, 37 °C, 100 mM NaCl, glutaminase site, with: MgCl2; no ATP): 6.37 ± 0.04 s⁻¹
B9 (BaiA1)  kcat (C[C@H](CCC(=O)SCCNC(=O)CCNC(=O)[C@H](O)C(C)(C)COP(=O)(O)OP(=O)(O)OC[C@H]1O[C@@H](n2cnc3c(N)ncnc32)[C@H](O)[C@@H]1OP(=O)(O)O)[C@H]1CC[C@H]2[C@@H]3CC[C@@H]4C[C@H](O)CC[C@]4(C)[C@H]3C[C@H](O)[C@]12C; pH 8.7, 37 °C, with: NAD+): 0.867 s⁻¹
